# Published values of several laboratories.
# A part holds a random share of what one study measured. Values joined by “and” are separate records of one study, mostly repeats; a detail may differ.
# Chain of UniProt O95747 (whole entry, looked up): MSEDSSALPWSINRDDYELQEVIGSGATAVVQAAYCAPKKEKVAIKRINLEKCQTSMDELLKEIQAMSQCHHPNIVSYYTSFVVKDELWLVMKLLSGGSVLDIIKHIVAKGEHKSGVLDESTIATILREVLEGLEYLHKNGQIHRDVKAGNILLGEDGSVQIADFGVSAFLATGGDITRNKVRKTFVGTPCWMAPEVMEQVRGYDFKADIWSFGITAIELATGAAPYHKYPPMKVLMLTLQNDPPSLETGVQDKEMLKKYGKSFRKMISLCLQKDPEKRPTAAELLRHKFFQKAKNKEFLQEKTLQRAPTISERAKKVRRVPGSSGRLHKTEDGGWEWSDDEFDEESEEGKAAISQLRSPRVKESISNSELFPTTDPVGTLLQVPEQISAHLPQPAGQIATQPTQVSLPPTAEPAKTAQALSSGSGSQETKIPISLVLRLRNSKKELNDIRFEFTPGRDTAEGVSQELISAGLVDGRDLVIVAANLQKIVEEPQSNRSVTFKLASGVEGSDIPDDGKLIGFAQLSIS
# Chain of UniProt Q13557 (whole entry, looked up): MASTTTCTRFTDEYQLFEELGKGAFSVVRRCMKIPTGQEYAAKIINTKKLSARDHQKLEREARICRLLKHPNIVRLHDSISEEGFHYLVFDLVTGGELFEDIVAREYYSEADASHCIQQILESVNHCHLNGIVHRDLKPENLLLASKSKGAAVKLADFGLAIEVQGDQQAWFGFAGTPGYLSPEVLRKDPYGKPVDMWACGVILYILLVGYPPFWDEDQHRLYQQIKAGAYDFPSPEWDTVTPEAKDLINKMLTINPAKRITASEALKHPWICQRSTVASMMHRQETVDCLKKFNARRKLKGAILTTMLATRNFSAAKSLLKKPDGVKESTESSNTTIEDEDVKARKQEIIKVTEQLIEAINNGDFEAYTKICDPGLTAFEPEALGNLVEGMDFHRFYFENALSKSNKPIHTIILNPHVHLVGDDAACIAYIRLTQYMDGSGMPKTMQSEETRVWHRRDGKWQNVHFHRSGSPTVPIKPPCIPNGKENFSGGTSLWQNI
# Chain of UniProt Q09013 (whole entry, looked up): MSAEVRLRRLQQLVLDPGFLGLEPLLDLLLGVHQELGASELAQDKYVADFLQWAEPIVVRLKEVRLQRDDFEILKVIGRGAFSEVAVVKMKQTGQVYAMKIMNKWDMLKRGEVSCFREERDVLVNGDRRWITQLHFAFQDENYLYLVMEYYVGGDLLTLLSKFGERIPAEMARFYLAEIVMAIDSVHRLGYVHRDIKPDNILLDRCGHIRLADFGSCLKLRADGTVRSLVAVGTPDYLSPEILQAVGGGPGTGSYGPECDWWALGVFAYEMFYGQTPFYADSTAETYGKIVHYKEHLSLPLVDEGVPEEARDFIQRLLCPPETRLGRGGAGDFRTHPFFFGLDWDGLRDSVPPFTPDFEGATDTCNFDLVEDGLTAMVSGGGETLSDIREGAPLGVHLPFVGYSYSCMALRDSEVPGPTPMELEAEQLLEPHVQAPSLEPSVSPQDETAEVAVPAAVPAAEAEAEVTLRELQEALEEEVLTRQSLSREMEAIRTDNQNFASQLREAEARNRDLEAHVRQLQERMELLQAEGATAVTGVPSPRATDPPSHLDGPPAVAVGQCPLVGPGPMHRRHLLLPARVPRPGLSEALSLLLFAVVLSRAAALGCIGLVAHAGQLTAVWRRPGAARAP
# Chain of UniProt Q13873 (whole entry, looked up): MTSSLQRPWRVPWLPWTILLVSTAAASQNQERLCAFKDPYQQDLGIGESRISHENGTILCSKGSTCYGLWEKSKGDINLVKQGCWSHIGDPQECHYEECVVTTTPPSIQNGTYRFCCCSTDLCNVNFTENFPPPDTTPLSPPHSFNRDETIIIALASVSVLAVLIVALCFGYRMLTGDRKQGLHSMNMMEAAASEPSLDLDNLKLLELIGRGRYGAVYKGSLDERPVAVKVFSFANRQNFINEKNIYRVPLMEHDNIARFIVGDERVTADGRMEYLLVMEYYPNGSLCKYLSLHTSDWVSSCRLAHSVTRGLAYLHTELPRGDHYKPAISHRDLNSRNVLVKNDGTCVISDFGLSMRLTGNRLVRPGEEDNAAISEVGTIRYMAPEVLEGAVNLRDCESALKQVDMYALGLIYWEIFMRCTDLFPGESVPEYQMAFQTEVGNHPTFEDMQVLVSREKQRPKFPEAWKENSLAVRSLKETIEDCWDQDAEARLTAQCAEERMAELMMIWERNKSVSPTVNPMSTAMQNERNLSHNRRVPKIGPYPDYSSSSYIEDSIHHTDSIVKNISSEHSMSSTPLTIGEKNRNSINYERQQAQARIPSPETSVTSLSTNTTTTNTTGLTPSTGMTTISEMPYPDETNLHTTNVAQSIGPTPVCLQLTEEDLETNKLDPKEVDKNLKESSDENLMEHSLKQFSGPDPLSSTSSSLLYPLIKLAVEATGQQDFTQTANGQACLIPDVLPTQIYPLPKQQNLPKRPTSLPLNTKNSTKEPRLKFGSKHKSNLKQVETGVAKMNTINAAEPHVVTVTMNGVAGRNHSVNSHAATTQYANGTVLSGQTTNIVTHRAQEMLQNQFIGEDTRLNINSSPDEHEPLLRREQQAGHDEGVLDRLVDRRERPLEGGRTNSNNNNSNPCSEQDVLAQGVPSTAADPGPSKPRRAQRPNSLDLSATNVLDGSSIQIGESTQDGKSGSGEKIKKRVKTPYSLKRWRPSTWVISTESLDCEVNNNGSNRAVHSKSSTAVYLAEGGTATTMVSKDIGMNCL
# Chain of UniProt P51955 (whole entry, looked up): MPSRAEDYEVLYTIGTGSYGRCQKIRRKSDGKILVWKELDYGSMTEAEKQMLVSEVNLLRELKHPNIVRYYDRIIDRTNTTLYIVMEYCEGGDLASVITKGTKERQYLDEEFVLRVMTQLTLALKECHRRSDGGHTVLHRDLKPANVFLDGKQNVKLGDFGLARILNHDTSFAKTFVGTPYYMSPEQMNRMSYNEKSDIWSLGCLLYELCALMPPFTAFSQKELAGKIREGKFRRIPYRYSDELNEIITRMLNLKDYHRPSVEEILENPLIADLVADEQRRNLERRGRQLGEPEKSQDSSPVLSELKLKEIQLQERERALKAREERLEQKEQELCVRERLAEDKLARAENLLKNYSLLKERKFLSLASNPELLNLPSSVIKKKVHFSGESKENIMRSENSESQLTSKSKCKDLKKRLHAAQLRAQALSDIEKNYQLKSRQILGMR
# Chain of UniProt O94804 (whole entry, looked up): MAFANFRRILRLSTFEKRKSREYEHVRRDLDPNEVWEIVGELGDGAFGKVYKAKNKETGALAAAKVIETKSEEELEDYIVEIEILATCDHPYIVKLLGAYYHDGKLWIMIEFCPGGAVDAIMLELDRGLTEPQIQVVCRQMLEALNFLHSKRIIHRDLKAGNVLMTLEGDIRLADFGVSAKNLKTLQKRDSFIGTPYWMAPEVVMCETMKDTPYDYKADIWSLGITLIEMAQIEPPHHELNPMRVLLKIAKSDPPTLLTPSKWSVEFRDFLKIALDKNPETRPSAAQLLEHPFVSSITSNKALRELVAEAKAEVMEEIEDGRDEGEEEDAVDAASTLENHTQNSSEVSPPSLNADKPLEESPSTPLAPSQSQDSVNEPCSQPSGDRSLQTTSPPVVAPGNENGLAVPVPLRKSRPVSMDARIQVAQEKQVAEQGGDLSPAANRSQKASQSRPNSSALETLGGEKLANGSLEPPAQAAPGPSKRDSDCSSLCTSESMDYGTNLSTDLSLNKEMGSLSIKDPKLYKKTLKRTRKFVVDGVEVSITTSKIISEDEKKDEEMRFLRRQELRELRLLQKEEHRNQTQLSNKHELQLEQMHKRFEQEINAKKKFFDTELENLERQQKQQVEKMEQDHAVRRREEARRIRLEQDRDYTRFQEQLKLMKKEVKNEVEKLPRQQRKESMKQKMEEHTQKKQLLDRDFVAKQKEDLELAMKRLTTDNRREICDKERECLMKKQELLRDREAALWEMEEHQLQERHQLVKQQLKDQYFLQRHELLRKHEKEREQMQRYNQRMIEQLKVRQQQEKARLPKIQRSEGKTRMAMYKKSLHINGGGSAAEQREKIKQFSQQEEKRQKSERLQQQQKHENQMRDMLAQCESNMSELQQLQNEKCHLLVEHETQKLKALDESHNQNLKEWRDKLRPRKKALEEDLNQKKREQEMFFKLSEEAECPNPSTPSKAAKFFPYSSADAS
# Chain of UniProt Q14164 (whole entry, looked up): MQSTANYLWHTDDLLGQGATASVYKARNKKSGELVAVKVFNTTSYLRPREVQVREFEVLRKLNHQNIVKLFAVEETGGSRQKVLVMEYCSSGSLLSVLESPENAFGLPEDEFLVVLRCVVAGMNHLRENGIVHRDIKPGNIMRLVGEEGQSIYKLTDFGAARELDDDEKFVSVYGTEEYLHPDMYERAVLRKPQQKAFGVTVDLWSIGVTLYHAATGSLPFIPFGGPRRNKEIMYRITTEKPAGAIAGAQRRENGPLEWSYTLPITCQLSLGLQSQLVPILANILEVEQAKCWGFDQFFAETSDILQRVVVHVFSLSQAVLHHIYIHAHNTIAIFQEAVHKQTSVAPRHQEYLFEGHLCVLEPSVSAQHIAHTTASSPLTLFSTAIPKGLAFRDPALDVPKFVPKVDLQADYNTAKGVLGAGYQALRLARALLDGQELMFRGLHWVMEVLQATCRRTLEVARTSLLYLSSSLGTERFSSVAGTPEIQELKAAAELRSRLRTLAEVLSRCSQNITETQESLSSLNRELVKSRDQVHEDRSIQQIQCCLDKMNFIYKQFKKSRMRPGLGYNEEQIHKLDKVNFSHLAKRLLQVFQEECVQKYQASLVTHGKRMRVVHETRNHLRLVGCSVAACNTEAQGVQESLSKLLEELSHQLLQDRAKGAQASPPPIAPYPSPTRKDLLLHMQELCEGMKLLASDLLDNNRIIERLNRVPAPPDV

# Series 1
# SMILES: COc1cc(-c2cn(C3CCc4ccccc4N(CC(F)(F)F)C3=O)nn2)ccc1-n1ccc(C)n1 (stereo not drawn)
# Read-out: cell-free assay
# Technique: competition with immobilised ligand
# Concentration: 1 µM
target,remaining binding [%]
"MET (Homo sapiens, UniProt P08581, M1250T)",100
"MAP3K4 (Homo sapiens, UniProt Q9Y6R4)",85
"DMPK (Homo sapiens, UniProt Q09013)",96
"BMPR2 (Homo sapiens, UniProt Q13873)",100
"BMP2K (Homo sapiens, UniProt Q9NSY1)",100
"EGFR (Homo sapiens, UniProt P00533, del747-750/T751S)",100
"CDK17 (Homo sapiens, UniProt Q00537)",100
"EPHA7 (Homo sapiens, UniProt Q15375)",100

# Series 2
# Structure (SMILES): CC(=O)N1CCN(c2nc(OC[C@@H]3CCCN3C)nc3c2CCN(c2cccc4cccc(Cl)c24)C3)C[C@@H]1CC#N
# Cell line: HEK293
# Technique: CellTiter-Glo
# Reference: vehicle
concentration,viability
312 nM,93.5% and 94.6% and 89.6%
625 nM,81.8% and 98.9% and 89.6%
20 µM,0.17% and 0.88% and 0.5%
1.25 µM,76.4% and 72.2% and 57.9%

# Series 3
# Cell line: mouse MPNST tumor cells
# Technique: high-content nuclear imaging
# Item: cell number
# Concentration: 10 µM
# Time: 12 h
# Setting: mean of 2 replicates
# Reference: plate mean
# Reading: higher = more cells
Compound,nuclei count
NS(=O)(=O)c1cc2c(cc1Cl)NC(C(Cl)Cl)NS2(=O)=O (stereo not drawn),-1.66 z-score
O=C(NO)c1cccc(C(=O)NCCc2ccccc2)c1,3.06 z-score
N#Cc1cccc(C(=O)Nc2cc(-c3ccccc3)nn2-c2ccccc2)c1,0.648 z-score
Cc1ccc2cc(-c3c(C)ccc(C(=O)c4c(-c5ccccc5)n(C)n(-c5ccccc5)c4=O)c3N)ccc2n1,2.33 z-score
Cc1cc(C)c(S(=O)(=O)Nc2ccccc2C(F)(F)F)c(C)c1,-0.324 z-score
CCN[C@H]1CN(CCCOC)S(=O)(=O)c2sc(S(N)(=O)=O)cc21,-0.442 z-score
O=C(O)C[C@H]1CC[C@H](c2ccc(NC(=O)c3nnc(Nc4ccc(F)c(F)c4)o3)cc2)CC1,3.3 z-score
CCOC(=O)C1=C(N)Oc2cc(O)ccc2C1c1cccnc1 (stereo not drawn),2.65 z-score
O=C(O)COC(=O)Cc1ccccc1Nc1c(Cl)cccc1Cl,0.801 z-score

# Series 4
# Compound: Nc1cccc(-c2cc3c(Oc4cccc(O)c4)ncnc3[nH]2)c1
# Read-out: enzyme activity
# Mode: inhibitor
# Concentration: 0.5 µM
# Reference: control
target,remaining activity
"PRKACA (Homo sapiens, UniProt P17612)",92.3%
"CHEK2 (Homo sapiens, UniProt O96017)",75.8%
"PRKCA (Homo sapiens, UniProt P17252)",95.6%
"Cyclin-dependent kinase 5, with p25 (CDK5, Homo sapiens, UniProt Q00535)",114%
"Protein kinase C beta type, isoform beta-I (PRKCB, Homo sapiens, UniProt P05771)",113%
"CAMK2D (Homo sapiens, UniProt Q13557)",99.8%
"NEK2 (Homo sapiens, UniProt P51955)",98%
"TGFBR1 (Homo sapiens, UniProt P36897)",101%
"MAPK9 (Homo sapiens, UniProt P45984)",111%
"IKBKB (Homo sapiens, UniProt O14920)",90.8%
"Tyrosine-protein kinase Lyn, isoform B (LYN, Homo sapiens, UniProt P07948)",21.4%
"GRK3 (Homo sapiens, UniProt P35626)",100%
"IKBKE (Homo sapiens, UniProt Q14164)",88.1%
"STK10 (Homo sapiens, UniProt O94804)",45.8%
"DAPK1 (Homo sapiens, UniProt P53355)",89.1%
"CAMKK2 (Homo sapiens, UniProt Q96RR4)",95.9%
"DAPK2 (Homo sapiens, UniProt Q9UIK4)",106%
"MAP3K3 (Homo sapiens, UniProt Q99759)",96.4%
"TGFBR2 (Homo sapiens, UniProt P37173)",42.6%
"OXSR1 (Homo sapiens, UniProt O95747)",119%
"Cyclin-dependent kinase 4, with cyclin D1 (CDK4, Homo sapiens, UniProt P11802)",88.7%

# Some of these lines once more (series 1):
target,remaining binding [%]
"DMPK (Homo sapiens, UniProt Q09013)",96
"BMPR2 (Homo sapiens, UniProt Q13873)",100
"BMP2K (Homo sapiens, UniProt Q9NSY1)",100
"EGFR (Homo sapiens, UniProt P00533, del747-750/T751S)",100
